Literature values that unrelated publications cite.
Lines come from different studies, so protocols differ. Numbers after ± are the reported error.
lecA: PA-I galactophilic lectin (lecA, Pseudomonas aeruginosa, UniProt Q05097)
MAOB: Amine oxidase [flavin-containing] B (MAOB, Homo sapiens, UniProt P27338)
lecB: Fucose-binding lectin PA-IIL (lecB, Pseudomonas aeruginosa, UniProt Q9HYN5)
ribH: 6,7-dimethyl-8-ribityllumazine synthase (ribH, Mycobacterium tuberculosis, UniProt P9WHE9)
EGFR L858R/T790M: Epidermal growth factor receptor (EGFR, Homo sapiens, UniProt P00533, L858R/T790M)

With `OCCn1cc(CO[C@@H]2O[C@H](CO)[C@H](O)[C@H](O)[C@H]2O)nn1` the binding stoichiometry was 0.92 (lecA; ITC; concentration not given).
For `CO[C@@H]1[C@H](O)[C@@H](COP(=O)([O-])OP(=O)(O)CP(=O)(O)OP(=O)(O)OC[C@H]2O[C@@H](n3cnc4c(=O)[nH]c(N)nc43)[C@H](O)[C@@H]2O)O[C@H]1n1c[n+](C)c2c(O)nc(N)nc21`, the association constant was 44 µM⁻¹ (Eukaryotic translation initiation factor 4E, residues 28-217 (Eif4e, Mus musculus, UniProt P63073); binding, fluorescence quenching titration; pH 7.2).
The maximum modulation of `COc1ccc(-n2nc3c4cc(Cl)ccc4[nH]cc-3c2=O)cc1` is reported as ~1000% (GABAA receptor α2β3γ2; ion current, modulator; α2β3γ2, added: GABA EC3-5).
With `C[C@H]1CN(C(=O)c2nc(Nc3cc(C4CC4)[nH]n3)c3cc(Cl)ccc3n2)CCN1` the selectivity ratio was 346 fold (PAK4 (Homo sapiens, UniProt O96013); reference: PAK1 over PAK4).
The selectivity ratio of `CC(=O)c1cc(OCc2ccc(Br)cc2)ccc1O` is reported as 17 (MAOB; reference: IC50 MAO-A over IC50 MAO-B).
With `CCOC(=O)C(C)NC(=O)CN1C(=O)N/C(=C\c2ccc(C)cc2)C1=O` (stereo not shown) the inhibition was 44.6 ± 0.99% (α-glucosidase; enzyme activity; 200 µM).
`CC(=O)c1c(O)cccc1OCc1cccc(Br)c1` gave a selectivity ratio of 17 (MAOB; reference: IC50 MAO-A over IC50 MAO-B).
`CC[C@@H](C)[C@H]1NC(=O)[C@@H]([C@H](C)O)NC(=O)[C@@H](Cc2c[nH]cn2)NC(=O)CNC(=O)[C@@H](CCCNC(=N)N)NC(=O)CNC(=O)[C@@H](Cc2ccccc2)NC1=O` — result for binding: “no binding” (PAI-1; concentration not given).
`CO[C@H]1O[C@H](CNS(=O)(=O)c2c(C)cc(C)cc2C)[C@@H](O)[C@H](O)[C@@H]1O` gave a ΔH of -7.9 kcal/mol (lecB; binding, ITC).
For `CC[C@H](C)[C@H](NC(C)=O)C(=O)N[C@H]1CSSC[C@@H](C(=O)N[C@H](C(N)=O)[C@@H](C)O)NC(=O)[C@H](CCCNC(=N)N)NC(=O)[C@H](Cc2c[nH]cn2)NC(=O)[C@H](C)NC(=O)CNC(=O)[C@H](Cc2c[nH]c3ccccc23)NC(=O)[C@H](CC(=O)O)NC(=O)[C@H](CCC(N)=O)NC(=O)[C@H](Cc2ccc3ccccc3c2)NC(=O)[C@H](C(C)C)NC1=O`, the ΔG was -9.5 kcal/mol (Complement C3 (Homo sapiens, UniProt P01024); binding, ITC).
`CCCCN(CCc1ccccc1)CCc1cccc(O)c1` has an Emax of 45.5% (OPRK1 (Homo sapiens, UniProt P41145); agonist).
Under ABCA1 expression, `Cc1cc2c(c(=O)o1)C=C1CCC(C(C)Cn3cnc4c(N)ncnc43)CC1O2` (stereo not shown) is recorded as “increased” (ABCA1; concentration not given).
`O=c1[nH]c(SC[C@H](O)[C@H](O)[C@H](O)CO)c([N+](=O)[O-])c(=O)[nH]1` gave a Ks of 36 ± 3 µM (ribH; enzyme kinetics; pH 7.0, added: substrate 2 fixed, 1 varied; lower = tighter substrate binding).
For `C[C@H](NC(=O)[C@@H]1CCCN1C(=O)[C@@H]1CCCN1C(=O)[C@H](C)NC(=O)[C@@H](NC(=O)[C@H](CO)NC(=O)CNC(=O)[C@@H]1CCCN1C(=O)[C@H](C)NC(=O)[C@@H]1CCCN1C(=O)[C@@H](N)CCCNC(=N)N)[C@@H](C)O)C(=O)N[C@@H](Cc1c[nH]cn1)C(=O)NCC(=O)O`, the koff was 0.00285 s⁻¹ (14 A monoclonal antibody; SPR).
`N=C(CF)NCCC[C@H](NC(=O)c1ccc(-c2ccccc2)cc1)c1nc2ccccc2[nH]1` has a kinact/KI of 20 M⁻¹ s⁻¹ (PADI2 (Homo sapiens, UniProt Q9Y2J8); inhibitor).
`CCOC(=O)C(=O)Nc1c(NC[C@H](O)[C@H](O)[C@H](O)CO)[nH]c(=O)[nH]c1=O` has a Ks of 53 ± 11 µM (ribH; enzyme kinetics; pH 7.0, added: substrate 2 fixed, 1 varied; lower = tighter substrate binding).
`C=CC(=O)N1CCC[C@@H](n2nc(-c3cn(C)c4ccccc34)c3c(N)ncnc32)C1` has a kinact/Ki of 360000 ± 90000 M⁻¹ s⁻¹ (EGFR L858R/T790M).
The selectivity ratio of `COc1cc2c(cc1OC)CN(CCCCn1ccc3cc(OCCF)ccc31)C2` is reported as 57 (Tmem97 (Rattus norvegicus, UniProt Q5U3Y7); binding; reference: Ki sigma1 over Ki sigma2).
With `CC(=O)N[C@@H](Cc1ccccc1)C(=O)N[C@@H](CC(=O)O)C(=O)N[C@@H](CC(N)=O)C(=O)N1CCC[C@H]1C(=O)N[C@H](C(=O)N[C@@H](CC(C)C)C(=O)O)C(C)C` the internalization index was 0.3 (LDL receptor, position 807 mutant; reference: native LDL receptor).
Under activity class, `CCSc1nc(-c2cccc(OCc3ccccc3)c2)cc(C(F)(F)F)n1` is recorded as “inactive” (GLP1R (Homo sapiens, UniProt P43220); GLP1R overexpressing cells; concentration not given).
With `CC(C)C[C@H](NC(=O)[C@H](CO)NC(=O)[C@H](C)NC(=O)[C@H](CCCNC(=N)N)NC(=O)[C@H](CCCNC(=N)N)NC(=O)[C@@H](N)CC(C)C)C(=O)NCC(=O)O` the Km was 16 µM (PRKACA (Homo sapiens, UniProt P17612); substrate).
`CCCCCCCCO[C@@H]1O[C@H](CO)[C@H](O)[C@H](O[C@H]2O[C@H](CO)[C@H](O)[C@H](O)[C@H]2O)[C@H]1O[C@@H]1O[C@@H](C)[C@@H](O)[C@@H](O)[C@@H]1O` — result for binding: “no binding” (ABO (Homo sapiens, UniProt P16442, G235S/G268A/L266M/R176G); mass spectrometry; concentration not given, added: UDP).
For `Cc1ccc(S(=O)(=O)N(CC(=O)N(Cc2ccccc2)c2ccc(C(=O)O)c(O)c2)C(=O)OC(C)(C)C)cc1`, the selectivity ratio was 2 to 3 fold (Signal transducer and activator of transcription 5B, SH2 domain (STAT5B, Homo sapiens, UniProt P51692); fluorescence polarization; reference: STAT5B over STAT3).
`CN[C@H](CC(C)C)C(=O)N[C@H]1C(=O)N[C@@H](CC(N)=O)C(=O)N[C@H]2C(=N)N[C@H]3C(=O)N[C@H](C(=O)N[C@H](C(=O)O)c4cc(O)cc(O)c4-c4cc3ccc4O)[C@H](O)c3ccc(c(Cl)c3)Oc3cc2cc(c3O)Oc2ccc(cc2Cl)[C@H]1O` — result for “binding affinity increase”: 600 fold (D-Ala-D-Lac; concentration not given; reference: vancomycin aglycon).
`CCOC(=O)C(NC(=O)CN1C(=O)/C(=C/c2ccc3c(c2)OCO3)SC1=S)C(C)C` (stereo not shown) gave an inhibition of 30 ± 23.9% (α-glucosidase; enzyme activity; 100 µM).
For `C[C@H](N)C(=O)N[C@@H](CCCNC(=N)N)C(=O)N[C@H](C(=O)N[C@@H](CCCC[N+](C)(C)C)C(=O)N[C@@H](CCC(N)=O)C(=O)N[C@H](C(=O)N[C@@H](C)C(=O)N[C@@H](CCCNC(=N)N)C(=O)N[C@@H](CCCCN)C(=O)N[C@@H](CO)C(=O)O)[C@@H](C)O)[C@@H](C)O`, binding read “binds” (Eaf3 N-terminal domain, yeast; bead pull-down; concentration not given).
For `CNc1ccccc1C(=O)O[C@H]1C[C@H](n2cnc3c(N)ncnc32)O[C@@H]1COP(=O)(O)OP(=O)(O)O`, “FRET distance change” read 2 to 4 Å (Unconventional myosin-Va (Gallus gallus, UniProt Q02440, D297C/G292C/I296C/S293C/V295G); concentration not given, temperature dependence, added: 1 mM MgCl2).
`CO[C@H]1O[C@H](CO)[C@@H](O)[C@H](O)[C@@H]1O` has a −TΔS of -1.4 kcal/mol (lecB; binding, ITC).
The Km of `CC(=O)N[C@H]1[C@@H](O)[C@H](O)[C@@H](CO)O[C@H]1O` is reported as 95 µM (N-acetylmannosamine kinase (human); substrate).
`C=CC(=O)N1CCC[C@@H](n2nc(-c3cccc4ccccc34)c3c(N)ncnc32)C1` has a kinact of 0.31 ± 0.04 min⁻¹ (EGFR L858R/T790M).
With `Cc1cccc(C)c1NC(=O)C1CCN(Cc2ccccc2)C1` (stereo not shown) the Hill coefficient was 0.9 ± 0.1 (SCN4A (Homo sapiens, UniProt P35499); sodium current block, in vitro; tonic block, 0.1 Hz).
`OC[C@H]1O[C@@H](OCc2cn([C@H]3[C@H](O)[C@@H](O)[C@H](c4cn([C@H]5[C@H](O)[C@@H](O)[C@H](n6cc([C@@H]7O[C@H](CO)[C@@H](n8cc(CO[C@@H]9O[C@H](CO)[C@H](O)[C@H](O)[C@H]9O)nn8)[C@H](O)[C@H]7O)nn6)O[C@@H]5CO)nn4)O[C@@H]3CO)nn2)[C@H](O)[C@@H](O)[C@H]1O` has a ΔG of -10.3 kcal/mol (lecA; ITC).
Under activity, `Nc1c2ncn3c2nc[n+]1[C@@H]1O[C@H](COP(=O)(O)OP(=O)([O-])OC[C@H]2O[C@@H]3[C@H](O)[C@@H]2OP(=O)(O)O)[C@@H](O)[C@H]1O` is recorded as “inactive” (cADPR receptor, sea urchin; sea urchin egg homogenate; concentration not given).
For `Nc1c(SC[C@H](O)[C@H](O)[C@H](O)CO)[nH]c(=O)[nH]c1=O`, the Ks was 0.59 ± 0.06 µM (6,7-dimethyl-8-ribityllumazine synthase (rib4, Schizosaccharomyces pombe, UniProt Q9UUB1); enzyme kinetics; pH 7.0; lower = tighter substrate binding).
With `CC(=O)NC1C(O)C(F)C(F)(C(=O)O)OC1C(O)C(O)CO` (stereo not shown) the inactivation concentration was 5 mM (Trypanosoma cruzi trans-sialidase; inhibitor).
The Ks of `CC(C)C(=O)Nc1c(NC[C@H](O)[C@H](O)[C@H](O)CO)[nH]c(=O)[nH]c1=O` is reported as 63 ± 8 µM (ribH; enzyme kinetics; pH 7.0, added: substrate 2 fixed, 1 varied; lower = tighter substrate binding).
`C=CC(=O)N1CCC[C@@H](n2nc(-c3ccc4ccccc4c3)c3c(N)ncnc32)C1` gave a kinact of 0.19 ± 0.12 min⁻¹ (EGFR (Homo sapiens, UniProt P00533)).

For quick reference, copied from above:
`CO[C@H]1O[C@H](CO)[C@@H](O)[C@H](O)[C@@H]1O` has a −TΔS of -1.4 kcal/mol (lecB; binding, ITC).
The Ks of `CC(C)C(=O)Nc1c(NC[C@H](O)[C@H](O)[C@H](O)CO)[nH]c(=O)[nH]c1=O` is reported as 63 ± 8 µM (ribH; enzyme kinetics; pH 7.0, added: substrate 2 fixed, 1 varied; lower = tighter substrate binding).
For `C[C@H](N)C(=O)N[C@@H](CCCNC(=N)N)C(=O)N[C@H](C(=O)N[C@@H](CCCC[N+](C)(C)C)C(=O)N[C@@H](CCC(N)=O)C(=O)N[C@H](C(=O)N[C@@H](C)C(=O)N[C@@H](CCCNC(=N)N)C(=O)N[C@@H](CCCCN)C(=O)N[C@@H](CO)C(=O)O)[C@@H](C)O)[C@@H](C)O`, binding read “binds” (Eaf3 N-terminal domain, yeast; bead pull-down; concentration not given).
